{"data": "Assay results from different studies", "note": "Every numbered part comes from another study and shows a few of its results, in no order."}
{"data": "Set 1", "target": "RNA binding protein fox-1 homolog 2, RRM domain, GST-SBP tag (RBFOX2, Homo sapiens, UniProt O43251-10, residues 100-194)", "technique": "RNA Bind-n-Seq", "form": "RNA", "sample": "in vitro", "tested at": "365 nM", "setting": "natural RNA segment, single round, ends assumed", "reference": "no-protein control", "reading": "higher = stronger binding", "all sequences stand within": "GGGAGUUCUACAGUCCGACGAUC … UGGAAUUCUCGGGUGCCAA", "Construct (chain)": "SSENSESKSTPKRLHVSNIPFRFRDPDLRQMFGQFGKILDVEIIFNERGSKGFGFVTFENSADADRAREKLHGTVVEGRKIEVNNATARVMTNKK"}
{"Oligonucleotide": "GGCUGGCCCUCAUUCGGGGUCGGGAACCAAGGGUGUGUCUGCUCUUUCCCUCCCCAUCCUCUGGCAGAAAUCAGCUAGACGCUAUACCGUGGACUCUCCCUGGUCCACCA", "RBNS enrichment (R)": 0.355}
{"Oligonucleotide": "UUUGUUUCAAUUCUAAGAAACACUUGCAGCUCUAGUAUUCACUUGAGUCUUCCUGUUUUUCCUGUACCGGGUCAUGGUAAUUUUUGGUUGUUUUGGUUGUUUUCUUAAAA", "RBNS enrichment (R)": 0.56}
{"Oligonucleotide": "UCUUUUUAAACAAAAAUUAUUUUGCCUACAGAAAGGUUGUAGUUUUGAGCACAUGUUAAUUUUUUUCCCUCUUUCCCCACUUUUAUUUUUUUAAAUAAGGGAUAACAUAU", "RBNS enrichment (R)": 0.682}
{"Oligonucleotide": "UUUGGCUUUGCUGCUCUGAUGAAGUUGCUCAGAUGAGCUGUGGCUGCCAGAGAACAAGGUGUAUGUUCUUGGGAAGCAGGUCUAUGCCAGUGGGCUGUUUUGCCUUGUUU", "RBNS enrichment (R)": 3.27}
{"Oligonucleotide": "UCCUCCCAUAACUGCAGGUGGAUUCCACCUGGGGAAUGAGGCUGCGUGUCGGGCGUCUGCUGGCCCUGAGACAUCCAGUCUUCCACACUCAACUGUGGGAUGGGAGGGUG", "RBNS enrichment (R)": 0.518}
{"Oligonucleotide": "CAUGUAAGCAGCAAAGGGGCGUAAGUAGCCACGAGGCACCUCGCAUGCCUUCUUCAGUGGCUGAGGGAUGACAAGCAGGACUUCCUGAGAGUCAGUCUGAAGAGAACACA", "RBNS enrichment (R)": 1.19}
{"Oligonucleotide": "GAACUCACUAUGUAGAUCAGGCUGGACUGAACUCACAAAGAUCCACCUGCCUCUGCCUCACAAAUGCUGGGAUAAAAAGCAUGAACCACCAGGCCCAGCAAAGAGGGCUA", "RBNS enrichment (R)": 3.68}
{"Oligonucleotide": "CCCCAUCUGGCAGCACAUGCCAAGUUUCAGGAGGAUUGGGGGGAGGCGGGUGCAGGCUUGAGAAGAAUCUGGGUGUGUGGGUAUGUGUGCACAUGUGCAUGUGGGUGUGU", "RBNS enrichment (R)": 8.2}
{"Oligonucleotide": "AGGCCUCCCCUCGAAAGACACUGGGAGGUCAGCAUGUUCCACAGGUGUUCAGAGGGAGUCUGCUACAAACUAUCAGGGCAAAAUCUCACUGGAUUUCUCCACUGAAAACC", "RBNS enrichment (R)": 2.85}
{"Oligonucleotide": "AGUGAAAAAUAACUGAAGUUCAUGGUUUUUAAAAAAGGUGAUGAUUCCUUUUAUGCUAUCACACACUACUGUCACCGAGACACUGACAAAGUGCUGGGUUCUCCAAGAGC", "RBNS enrichment (R)": 0.482}
{"Oligonucleotide": "AUUUUACUUUGCUGCUCAGUUUUGAAAGUGUGUGAGCUACAUAGGUCUCCCUGUAGGAAAUGUGAAAAAAAGCACAAUAGAACCAGGCUAGGGGCUUUGUUCCUGCUUUU", "RBNS enrichment (R)": 1.06}
{"Oligonucleotide": "CGCUUUUUGUUGUUGUUGGUUUUCUUAACCCCUUUAAUGGAACUGCCUGGAUUUUAUACAGUUAUUAAAGGAUGUCUCUUUUGCUUUAAACUGCAUGCUGCCAAGUGCCA", "RBNS enrichment (R)": 2.22}
{"data": "Set 2", "target": "Sal-like protein 4, full length isoform B (SALL4, Homo sapiens, UniProt Q9UJQ4-2, residues 1-616)", "technique": "universal PBM", "form": "double-stranded DNA, one strand shown", "sample": "in vitro", "tested at": "not given", "setting": "8-mer, flanks averaged, mean of replicates", "reading": "higher = stronger binding"}
{"Oligonucleotide": "TGACATCA", "E-score": 0.135}
{"Oligonucleotide": "CATCTAGA", "E-score": 0.0591}
{"Oligonucleotide": "GCGCCGAA", "E-score": -0.187}
{"Oligonucleotide": "AATTCGCC", "E-score": -0.0146}
{"Oligonucleotide": "ACATCTCA", "E-score": 0.155}
{"Oligonucleotide": "ATACGCCG", "E-score": -0.187}
{"Oligonucleotide": "AGGTTAGC", "E-score": -0.0794}
{"Oligonucleotide": "ATGACTCG", "E-score": 0.0718}
{"Oligonucleotide": "ATAGCTTA", "E-score": 0.203}
{"Oligonucleotide": "AAATCACC", "E-score": 0.0809}
{"Oligonucleotide": "ACAGCCCC", "E-score": -0.274}
{"Oligonucleotide": "CAGAACGC", "E-score": -0.223}
{"Oligonucleotide": "CTCGACCC", "E-score": -0.266}
{"Oligonucleotide": "ACTATCCA", "E-score": 0.0931}
{"Oligonucleotide": "GAGATTAC", "E-score": -0.0152}
{"Oligonucleotide": "CGATAGTC", "E-score": 0.0951}
{"data": "Set 3", "target": "Centromere-binding protein 1, full length, N-terminal tag (CBF1, Saccharomyces cerevisiae, UniProt P17106, residues 1-351)", "technique": "protein-binding microarray", "form": "double-stranded DNA, one strand shown", "sample": "in vitro", "tested at": "0.8 µM", "setting": "whole 60-bp probe, no competitor", "reading": "higher = stronger binding", "all sequences stand within": "… GTCTTGATTCGCTTGACGCTGCTG", "UniProt P17106, sequence (whole entry, looked up)": "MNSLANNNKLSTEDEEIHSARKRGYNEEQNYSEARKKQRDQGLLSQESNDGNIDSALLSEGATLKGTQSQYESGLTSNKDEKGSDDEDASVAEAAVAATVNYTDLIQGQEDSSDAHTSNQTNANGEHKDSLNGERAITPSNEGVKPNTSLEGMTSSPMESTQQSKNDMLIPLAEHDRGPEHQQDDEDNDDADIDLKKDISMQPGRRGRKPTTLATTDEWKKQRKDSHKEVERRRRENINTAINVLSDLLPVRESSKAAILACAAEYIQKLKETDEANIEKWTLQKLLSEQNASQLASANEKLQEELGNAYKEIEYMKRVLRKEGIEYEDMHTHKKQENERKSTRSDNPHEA"}
{"Oligonucleotide": "GAAGAGGACAGCGACACGTGCATTCATGGTAGTTAG", "fluorescence intensity": "4800 a.u."}
{"Oligonucleotide": "CTAGGAGTGCGTCTCCACGTCATCATCATCGTCTTC", "fluorescence intensity": "522 a.u."}
{"Oligonucleotide": "CTAAGGAACAAGAAGCACGGGTACTCGTGTTAGTTC", "fluorescence intensity": "747 a.u."}
{"Oligonucleotide": "CTACCGGAACACCGGCACGTATTTCATAAAAAGTTC", "fluorescence intensity": "499 a.u."}
{"Oligonucleotide": "CTATTTTAATTACATCGTGACAACGGTTTCCTATTC", "fluorescence intensity": "809 a.u."}
{"Oligonucleotide": "GAATGCCTTGACATACACGTGTCTATTTCTTTTTAG", "fluorescence intensity": "5120 a.u."}
{"Oligonucleotide": "CTACCTATATGGAGTCATGAGCATACATGGTGCTTC", "fluorescence intensity": "611 a.u."}
{"Oligonucleotide": "GAAGTCACTCACACGCACGCTCATATCAGATGTTAG", "fluorescence intensity": "622 a.u."}
{"Oligonucleotide": "GAATCACAGAACCTGGACGTGCCGCTGTTATTGTAG", "fluorescence intensity": "510 a.u."}
{"Oligonucleotide": "GAATATTATCATTATCACGAGGAACCTCAATGTTAG", "fluorescence intensity": "1170 a.u."}
{"Oligonucleotide": "GAATCACTGGTGATGCACGCCCAGCGTGTAGTCTAG", "fluorescence intensity": "502 a.u."}
{"Oligonucleotide": "GAATCCTTTGGTTTGCACGCGCGCTATGTTATCTAG", "fluorescence intensity": "595 a.u."}
{"Oligonucleotide": "CTACCGTGAGCGACTCATGACGCGCGTGTGCTATTC", "fluorescence intensity": "578 a.u."}
{"Oligonucleotide": "TGTACGAAGCTATAGCACGAAAGTATAGTAGTTAGG", "fluorescence intensity": "504 a.u."}
{"Oligonucleotide": "TGTACGAAGCTATTCGGCGTGATTATAGTAGTTAGG", "fluorescence intensity": "576 a.u."}
{"Oligonucleotide": "TGTACGAAGCTATGGCACGCGATTATAGTAGTTAGG", "fluorescence intensity": "613 a.u."}
{"Oligonucleotide": "CTAAGTCCATCGCACGGCGTGGTGGTGATAAAGTTC", "fluorescence intensity": "557 a.u."}
{"Oligonucleotide": "CTACATAGAAGAACGAACGTGAAGGTTTGTAGCTTC", "fluorescence intensity": "534 a.u."}
{"Oligonucleotide": "CTATCAACTAGTAGTCACACTACCAATATATTATTC", "fluorescence intensity": "900 a.u."}
{"data": "Set 4", "target": "Histone acetyltransferase KAT6A, winged helix 2, GST fusion (KAT6A, Homo sapiens, UniProt Q92794, residues 85-181)", "technique": "protein binding microarray", "form": "double-stranded DNA, one strand shown", "sample": "in vitro", "tested at": "not given", "setting": "8-mer, flanks averaged, mean of 2 arrays, mostly near background", "reference": "not given", "reading": "higher = stronger binding", "Construct (chain)": "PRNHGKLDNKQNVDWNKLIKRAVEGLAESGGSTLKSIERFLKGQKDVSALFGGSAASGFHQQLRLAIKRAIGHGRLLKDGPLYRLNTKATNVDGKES"}
{"Oligonucleotide": "ACCCATCC", "E-score": -0.115}
{"Oligonucleotide": "AATGAGAA", "E-score": 0.0565}
{"Oligonucleotide": "ATTTAACG", "E-score": 0.0474}
{"Oligonucleotide": "TCTTATAA", "E-score": -0.0736}
{"Oligonucleotide": "AGTTGGTA", "E-score": -0.048}
{"Oligonucleotide": "AAACTCTG", "E-score": 0.195}
{"Oligonucleotide": "AACTCTGC", "E-score": -0.0613}
{"Oligonucleotide": "AAAGATTG", "E-score": -0.188}
{"Oligonucleotide": "CCGACGAC", "E-score": 0.124}
{"Oligonucleotide": "GAAGGACA", "E-score": 0.0855}
{"Oligonucleotide": "ACTAGATG", "E-score": -0.103}
{"Oligonucleotide": "GAGTGCTA", "E-score": -0.0518}
{"Oligonucleotide": "GGCAGTCA", "E-score": 0.185}
{"Oligonucleotide": "CGGAAGAG", "E-score": 0.0136}
{"Oligonucleotide": "AGGATCGC", "E-score": -0.169}
{"Oligonucleotide": "GGCTCCAC", "E-score": 0.025}
{"Oligonucleotide": "AGAACCTC", "E-score": 0.0425}
{"Oligonucleotide": "CATCACAC", "E-score": 0.0375}
{"Oligonucleotide": "CACACGGG", "E-score": 0.00062}
{"Oligonucleotide": "CTTGGTGA", "E-score": 0.0112}
{"Oligonucleotide": "GTCATGGA", "E-score": -0.0488}
{"note": "Repeated from above (set 4):"}
{"Oligonucleotide": "AGGATCGC", "E-score": -0.169}
{"Oligonucleotide": "TCTTATAA", "E-score": -0.0736}
{"Oligonucleotide": "AAACTCTG", "E-score": 0.195}
{"Oligonucleotide": "GAAGGACA", "E-score": 0.0855}
{"Oligonucleotide": "AACTCTGC", "E-score": -0.0613}
{"Oligonucleotide": "GGCTCCAC", "E-score": 0.025}
{"Oligonucleotide": "CTTGGTGA", "E-score": 0.0112}
